Results pooled from the literature.
A part holds a random share of what one study measured.
UniProt O00141, sequence (whole entry, looked up): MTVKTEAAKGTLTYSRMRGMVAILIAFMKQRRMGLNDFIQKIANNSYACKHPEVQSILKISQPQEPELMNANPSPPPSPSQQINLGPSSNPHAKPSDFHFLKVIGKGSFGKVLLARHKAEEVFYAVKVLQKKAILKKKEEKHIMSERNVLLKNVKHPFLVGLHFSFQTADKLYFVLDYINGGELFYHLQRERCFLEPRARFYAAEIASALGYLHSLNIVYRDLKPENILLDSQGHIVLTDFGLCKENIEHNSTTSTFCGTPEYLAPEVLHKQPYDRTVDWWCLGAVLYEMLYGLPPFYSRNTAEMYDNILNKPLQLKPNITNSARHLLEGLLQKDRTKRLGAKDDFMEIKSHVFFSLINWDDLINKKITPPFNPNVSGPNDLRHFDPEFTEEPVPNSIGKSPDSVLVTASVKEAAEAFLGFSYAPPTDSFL
UniProt Q16288, sequence (whole entry, looked up): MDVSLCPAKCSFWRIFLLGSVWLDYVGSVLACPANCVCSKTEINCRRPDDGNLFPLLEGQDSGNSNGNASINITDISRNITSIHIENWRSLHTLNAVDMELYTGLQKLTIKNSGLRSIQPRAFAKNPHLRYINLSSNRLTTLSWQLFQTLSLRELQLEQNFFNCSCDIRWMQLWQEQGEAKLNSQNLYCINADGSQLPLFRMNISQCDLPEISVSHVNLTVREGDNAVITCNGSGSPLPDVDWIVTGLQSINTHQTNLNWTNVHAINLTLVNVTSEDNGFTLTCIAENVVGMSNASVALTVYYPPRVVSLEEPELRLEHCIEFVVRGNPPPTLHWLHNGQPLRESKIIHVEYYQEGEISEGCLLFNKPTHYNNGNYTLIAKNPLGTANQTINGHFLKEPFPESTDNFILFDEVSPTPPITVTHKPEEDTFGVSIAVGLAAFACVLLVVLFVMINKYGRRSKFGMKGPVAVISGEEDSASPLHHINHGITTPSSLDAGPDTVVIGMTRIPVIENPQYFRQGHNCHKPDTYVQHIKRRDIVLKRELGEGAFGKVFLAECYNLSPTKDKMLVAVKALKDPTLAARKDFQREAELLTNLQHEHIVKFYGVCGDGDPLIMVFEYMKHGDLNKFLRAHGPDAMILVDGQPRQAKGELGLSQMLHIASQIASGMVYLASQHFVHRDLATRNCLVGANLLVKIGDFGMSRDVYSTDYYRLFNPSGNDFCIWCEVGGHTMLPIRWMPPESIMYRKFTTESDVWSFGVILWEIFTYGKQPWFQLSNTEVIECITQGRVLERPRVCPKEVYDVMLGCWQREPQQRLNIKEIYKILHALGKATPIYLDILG
UniProt Q9BZL6, sequence (whole entry, looked up): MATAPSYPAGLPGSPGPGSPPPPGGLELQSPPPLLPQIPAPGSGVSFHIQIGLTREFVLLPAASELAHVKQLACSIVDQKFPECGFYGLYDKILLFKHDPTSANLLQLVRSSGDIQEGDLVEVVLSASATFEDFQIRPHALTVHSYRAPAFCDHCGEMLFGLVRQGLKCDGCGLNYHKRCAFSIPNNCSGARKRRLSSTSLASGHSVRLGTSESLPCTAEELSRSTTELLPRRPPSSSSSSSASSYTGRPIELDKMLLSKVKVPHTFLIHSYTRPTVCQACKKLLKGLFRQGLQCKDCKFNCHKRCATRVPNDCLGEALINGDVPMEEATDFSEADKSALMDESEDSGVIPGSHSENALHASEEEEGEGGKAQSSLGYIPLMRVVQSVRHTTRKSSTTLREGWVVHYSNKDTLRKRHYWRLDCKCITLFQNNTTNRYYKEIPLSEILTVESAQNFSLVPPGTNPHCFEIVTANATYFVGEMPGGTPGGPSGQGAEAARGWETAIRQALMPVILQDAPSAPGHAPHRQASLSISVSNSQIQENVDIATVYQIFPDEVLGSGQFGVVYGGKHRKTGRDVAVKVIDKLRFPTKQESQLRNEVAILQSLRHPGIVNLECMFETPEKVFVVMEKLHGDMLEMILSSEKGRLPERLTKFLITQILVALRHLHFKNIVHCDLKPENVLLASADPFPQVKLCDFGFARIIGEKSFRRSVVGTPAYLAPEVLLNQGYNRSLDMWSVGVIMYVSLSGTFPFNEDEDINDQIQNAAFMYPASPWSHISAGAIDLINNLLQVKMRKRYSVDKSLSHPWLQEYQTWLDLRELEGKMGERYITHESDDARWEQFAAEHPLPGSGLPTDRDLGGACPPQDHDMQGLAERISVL
UniProt Q9Y6M4, sequence (whole entry, looked up): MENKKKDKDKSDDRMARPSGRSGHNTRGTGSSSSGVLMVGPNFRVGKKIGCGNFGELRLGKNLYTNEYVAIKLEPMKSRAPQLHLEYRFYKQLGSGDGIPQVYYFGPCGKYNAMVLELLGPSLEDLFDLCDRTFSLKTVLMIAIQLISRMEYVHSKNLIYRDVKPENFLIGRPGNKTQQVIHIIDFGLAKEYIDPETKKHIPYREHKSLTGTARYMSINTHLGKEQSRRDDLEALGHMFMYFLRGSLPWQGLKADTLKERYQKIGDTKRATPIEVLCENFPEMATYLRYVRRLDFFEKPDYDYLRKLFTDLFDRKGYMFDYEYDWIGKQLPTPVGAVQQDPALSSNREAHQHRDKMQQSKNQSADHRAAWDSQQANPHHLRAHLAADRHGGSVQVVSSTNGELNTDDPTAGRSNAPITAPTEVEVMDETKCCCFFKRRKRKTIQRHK
UniProt Q04912, sequence (whole entry, looked up): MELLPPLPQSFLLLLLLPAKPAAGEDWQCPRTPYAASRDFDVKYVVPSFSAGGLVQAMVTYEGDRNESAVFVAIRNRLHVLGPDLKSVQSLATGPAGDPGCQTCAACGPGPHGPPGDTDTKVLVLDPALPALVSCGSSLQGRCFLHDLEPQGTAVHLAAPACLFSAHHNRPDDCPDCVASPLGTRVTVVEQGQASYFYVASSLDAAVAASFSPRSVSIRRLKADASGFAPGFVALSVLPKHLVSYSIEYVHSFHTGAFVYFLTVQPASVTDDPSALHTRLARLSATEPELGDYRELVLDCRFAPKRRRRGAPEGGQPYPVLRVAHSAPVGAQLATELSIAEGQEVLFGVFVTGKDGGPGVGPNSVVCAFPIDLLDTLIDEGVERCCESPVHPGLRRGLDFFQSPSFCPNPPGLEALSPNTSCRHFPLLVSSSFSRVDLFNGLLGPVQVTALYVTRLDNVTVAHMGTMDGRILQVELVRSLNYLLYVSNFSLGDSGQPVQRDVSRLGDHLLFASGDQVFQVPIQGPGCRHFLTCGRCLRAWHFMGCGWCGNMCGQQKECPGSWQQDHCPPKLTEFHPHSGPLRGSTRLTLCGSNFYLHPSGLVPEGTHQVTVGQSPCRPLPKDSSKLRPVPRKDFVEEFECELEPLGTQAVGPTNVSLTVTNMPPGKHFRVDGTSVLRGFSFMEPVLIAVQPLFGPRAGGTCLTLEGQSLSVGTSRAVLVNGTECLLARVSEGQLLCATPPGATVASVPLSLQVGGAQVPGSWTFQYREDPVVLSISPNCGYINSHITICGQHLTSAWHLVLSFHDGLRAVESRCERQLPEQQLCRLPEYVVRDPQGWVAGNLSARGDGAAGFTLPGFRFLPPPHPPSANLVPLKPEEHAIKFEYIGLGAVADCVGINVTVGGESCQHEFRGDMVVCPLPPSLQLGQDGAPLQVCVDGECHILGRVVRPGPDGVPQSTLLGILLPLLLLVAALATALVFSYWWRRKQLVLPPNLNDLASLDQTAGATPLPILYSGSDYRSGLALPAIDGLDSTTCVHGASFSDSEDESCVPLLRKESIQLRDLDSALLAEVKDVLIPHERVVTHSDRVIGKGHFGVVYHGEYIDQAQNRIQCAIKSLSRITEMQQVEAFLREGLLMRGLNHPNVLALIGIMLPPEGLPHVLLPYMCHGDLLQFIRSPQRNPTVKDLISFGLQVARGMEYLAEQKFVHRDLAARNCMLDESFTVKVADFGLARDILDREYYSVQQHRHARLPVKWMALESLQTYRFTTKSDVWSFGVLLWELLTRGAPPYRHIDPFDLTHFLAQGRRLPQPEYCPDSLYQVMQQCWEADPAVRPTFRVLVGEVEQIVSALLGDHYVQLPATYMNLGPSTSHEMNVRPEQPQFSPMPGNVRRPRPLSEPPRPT
UniProt P49761, sequence (whole entry, looked up): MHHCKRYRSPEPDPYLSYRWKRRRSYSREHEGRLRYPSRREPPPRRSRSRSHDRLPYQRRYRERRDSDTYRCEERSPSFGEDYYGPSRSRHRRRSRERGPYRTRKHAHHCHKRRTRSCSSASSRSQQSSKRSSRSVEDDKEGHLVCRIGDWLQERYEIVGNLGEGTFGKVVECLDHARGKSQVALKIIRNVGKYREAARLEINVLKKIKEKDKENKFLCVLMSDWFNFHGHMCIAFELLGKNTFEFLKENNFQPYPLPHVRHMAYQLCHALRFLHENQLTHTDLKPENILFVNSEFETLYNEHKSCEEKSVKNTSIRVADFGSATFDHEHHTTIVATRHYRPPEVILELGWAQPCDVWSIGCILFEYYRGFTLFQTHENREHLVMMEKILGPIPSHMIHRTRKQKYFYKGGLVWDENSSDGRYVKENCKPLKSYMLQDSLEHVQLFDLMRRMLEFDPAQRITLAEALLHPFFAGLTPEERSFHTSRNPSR

Set 1 — read-out: cell-free assay; method: competition with immobilised ligand; concentration: 1 µM
SMILES: CCCOc1ccc([C@H]2[C@H](C(=O)O)[C@@H](c3ccc4c(c3)OCO4)CN2CC(=O)Nc2c(CC)cccc2CC)cc1
| target | remaining binding |
| --- | --- |
| Serine/threonine-protein kinase PLK2 (PLK2, Homo sapiens, UniProt Q9NYY3) | 79% |
| Hormonally up-regulated neu tumor-associated kinase (HUNK, Homo sapiens, UniProt P57058) | 100% |
| SRSF protein kinase 3 (SRPK3, Homo sapiens, UniProt Q9UPE1) | 100% |
| Macrophage-stimulating protein receptor (MST1R, Homo sapiens, UniProt Q04912) | 86% |
| Calcium/calmodulin-dependent protein kinase type II subunit delta (CAMK2D, Homo sapiens, UniProt Q13557) | 93% |
| Phosphatidylinositol 4,5-bisphosphate 3-kinase catalytic subunit beta isoform (PIK3CB, Homo sapiens, UniProt P42338) | 73% |
| NT-3 growth factor receptor (NTRK3, Homo sapiens, UniProt Q16288) | 71% |
| Phosphatidylinositol 4,5-bisphosphate 3-kinase catalytic subunit delta isoform (PIK3CD, Homo sapiens, UniProt O00329) | 75% |
| Serine/threonine-protein kinase Sgk3 (SGK3, Homo sapiens, UniProt Q96BR1) | 63% |
| BDNF/NT-3 growth factors receptor (NTRK2, Homo sapiens, UniProt Q16620) | 85% |
| Serine/threonine-protein kinase BRSK2 (BRSK2, Homo sapiens, UniProt Q8IWQ3) | 97% |
| Epidermal growth factor receptor (EGFR, Homo sapiens, UniProt P00533, del747-752/P753S) | 81% |
| Serine/threonine-protein kinase D2 (PRKD2, Homo sapiens, UniProt Q9BZL6) | 84% |
| Dual specificity protein kinase CLK3 (CLK3, Homo sapiens, UniProt P49761) | 97% |
| Tyrosine-protein kinase JAK1, JH2 (JAK1, Homo sapiens, UniProt P23458) | 94% |
| Casein kinase I isoform gamma-3 (CSNK1G3, Homo sapiens, UniProt Q9Y6M4) | 100% |

Set 2 — SMILES: COc1ccc(COc2ccc(Cc3cnc(N)nc3N)cc2OC)cc1; read-out: enzyme activity; mode: inhibitor; concentration: 0.5 µM; baseline: control
| target | remaining activity [%] |
| --- | --- |
| Aurora kinase C (AURKC, Homo sapiens, UniProt Q9UQB9) | 97.5 |
| G protein-coupled receptor kinase 6 (GRK6, Homo sapiens, UniProt P43250) | 99.8 |
| Ephrin type-A receptor 7 (EPHA7, Homo sapiens, UniProt Q15375) | 101 |
| Beta-adrenergic receptor kinase 1 (GRK2, Homo sapiens, UniProt P25098) | 96.1 |
| Myosin light chain kinase, smooth muscle (MYLK, Homo sapiens, UniProt Q15746) | 95.7 |
| Protein kinase C gamma type (PRKCG, Homo sapiens, UniProt P05129) | 102 |
| Serine/threonine-protein kinase Sgk1 (SGK1, Homo sapiens, UniProt O00141) | 97.9 |
| Cytoplasmic tyrosine-protein kinase BMX (BMX, Homo sapiens, UniProt P51813) | 93.4 |

Set 3 — organism: Sarcocystis neurona; read-out: parasite growth; concentration: 10 µM; time: 96 h
| SMILES | inhibition [%] |
| --- | --- |
| CC[C@H](C)C(=O)O[C@H]1CCC=C2C=C[C@H](C)[C@H](CC[C@@H]3C[C@@H](O)CC(=O)O3)[C@H]21 | 0.5 |
| Nc1c2c(nc3c1CCC3)CCCC2 | -2.1 |
| CC(=O)[C@H]1CC[C@H]2[C@@H]3C[C@H](C)C4=CC(=O)CC[C@]4(C)[C@H]3[C@@H](O)C[C@]12C | -12.5 |
| CN1CC(=O)N2[C@H](c3ccc4c(c3)OCO4)c3[nH]c4ccccc4c3C[C@@H]2C1=O | -8.3 |
| CNCCCN1c2ccccc2CCc2ccccc21 | -12.8 |
| C[C@@H]1O[C@@H](OC[C@H]2O[C@@H](Oc3c(-c4ccc(O)c(O)c4)oc4cc(O)cc(O)c4c3=O)[C@H](O)[C@@H](O)[C@@H]2O)[C@H](O)[C@H](O)[C@H]1O | -9.8 |
| CCN1CCC[C@H]1CNC(=O)c1cc(S(N)(=O)=O)ccc1OC | -10.9 |
| Nc1nc(N)nc(-c2cc(Cl)ccc2Cl)n1 | -3.5 |
| CCOC(=O)O[C@]1(C(=O)OCCl)CC[C@H]2[C@@H]3CCC4=CC(=O)C=C[C@]4(C)[C@H]3[C@@H](O)C[C@@]21C | -11.1 |
| Cc1cccc(C)c1NC(=O)C1CCCCN1C (stereo not drawn) | -7.3 |
| NC12CC3CC(CC(C3)C1)C2 | -17.8 |
| Cc1cccc(Nc2ccccc2C(=O)O)c1C | -9.1 |
| Fc1ccc([C@@H]2CCNC[C@H]2COc2ccc3c(c2)OCO3)cc1 | -0.8 |

Set 4 — mode: agonist
Target: Beta-1 adrenergic receptor (ADRB1, Homo sapiens, UniProt P08588)
UniProt P08588, sequence (whole entry, looked up): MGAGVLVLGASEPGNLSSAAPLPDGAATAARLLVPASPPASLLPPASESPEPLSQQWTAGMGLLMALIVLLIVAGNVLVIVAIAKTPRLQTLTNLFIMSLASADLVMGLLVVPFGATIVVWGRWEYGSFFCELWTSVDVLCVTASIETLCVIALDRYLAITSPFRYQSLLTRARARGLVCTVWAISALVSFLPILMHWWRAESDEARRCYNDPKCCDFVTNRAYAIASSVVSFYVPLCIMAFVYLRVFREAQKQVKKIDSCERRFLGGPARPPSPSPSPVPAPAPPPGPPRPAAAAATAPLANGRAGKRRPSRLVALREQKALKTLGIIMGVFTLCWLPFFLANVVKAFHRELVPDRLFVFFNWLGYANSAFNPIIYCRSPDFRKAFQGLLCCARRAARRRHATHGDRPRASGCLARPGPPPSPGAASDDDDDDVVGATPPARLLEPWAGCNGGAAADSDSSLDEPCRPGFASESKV
| Structure (SMILES) | Emax |
| --- | --- |
| CN(Cc1ccccc1)Cc1ccccc1OCC(O)CN1CCCCC1 (stereo not drawn) | 96.3% |
| CC(C)(C)NCC(O)COc1ccccc1-c1ccccc1 (stereo not drawn) | 95.1% |
| CN(Cc1ccc(F)cc1)Cc1ccccc1OCC(O)CN1CCCCC1 (stereo not drawn) | 96.4% |
| COc1ccccc1N1CCN(CC2CCOCC2)CC1 | 85.9% |
| COc1ccccc1N1CCN(CC2CN3C(=O)N(C)c4ccccc4C3=N2)CC1 (stereo not drawn) | 77.8% |
| COc1ccccc1N1CCN([C@@H]2[C@H](O)[C@H](CO)O[C@@H]2CN[S+](C)(=O)[O-])CC1 | 67.7% |
| OC(COc1ccccc1CNCC1CCOCC1)CN1CCSCC1 (stereo not drawn) | 109% |
| COc1ccccc1N1CCN(CCC(=O)Nc2ccc3c(c2)OCCO3)CC1 | 33.5% |

A few entries again (set 4):
| Structure (SMILES) | Emax |
| --- | --- |
| CN(Cc1ccccc1)Cc1ccccc1OCC(O)CN1CCCCC1 (stereo not drawn) | 96.3% |
| COc1ccccc1N1CCN([C@@H]2[C@H](O)[C@H](CO)O[C@@H]2CN[S+](C)(=O)[O-])CC1 | 67.7% |
| OC(COc1ccccc1CNCC1CCOCC1)CN1CCSCC1 (stereo not drawn) | 109% |
| CN(Cc1ccc(F)cc1)Cc1ccccc1OCC(O)CN1CCCCC1 (stereo not drawn) | 96.4% |
| COc1ccccc1N1CCN(CC2CN3C(=O)N(C)c4ccccc4C3=N2)CC1 (stereo not drawn) | 77.8% |
